Measurements pooled from the literature.
Compare with care: the assays were run in different laboratories.
CDK9: Cyclin-dependent kinase 9 (CDK9, Homo sapiens, UniProt P50750)
UniProt P50750, sequence (whole entry, looked up): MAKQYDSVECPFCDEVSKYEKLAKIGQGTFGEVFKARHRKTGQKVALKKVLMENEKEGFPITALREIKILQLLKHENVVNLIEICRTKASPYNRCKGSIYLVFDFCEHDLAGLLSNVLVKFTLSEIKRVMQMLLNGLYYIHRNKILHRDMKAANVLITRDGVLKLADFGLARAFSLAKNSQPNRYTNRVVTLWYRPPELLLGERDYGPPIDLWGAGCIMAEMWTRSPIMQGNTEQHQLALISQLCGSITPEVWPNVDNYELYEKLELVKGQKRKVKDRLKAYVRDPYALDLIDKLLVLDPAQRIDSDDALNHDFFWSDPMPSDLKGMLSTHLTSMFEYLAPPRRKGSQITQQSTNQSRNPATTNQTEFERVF
CDK9 with cyclin T1: Cyclin-dependent kinase 9, with cyclin T1 (CDK9, Homo sapiens, UniProt P50750)

SMILES	target	test	test system	conditions	how to read	endpoint	result
CC[C@@H]1[C@H](F)C(=O)N[C@@H]1COc1nccc2cc(C(N)=O)c(OC)cc12	CDK9	ATP-site probe binding, ActivX profiling	THP-1 cell lysate	0.2 mM, Lys2 site	–	inhibition	2.5%
Cc1cc(Nc2cc(N3CCN(C)CC3)nc(Sc3ccc(NC(=O)C4CC4)cc3)n2)[nH]n1	CDK9 with cyclin T1	kinase activity, KinaseProfiler	–	0.03 µM, species human	relative to: control	remaining activity	103%
COc1ccc(-c2oc3cc(Nc4ncc5cc(C(=O)N(C)C)n(C6CCCC6)c5n4)ccc3c(=O)c2F)cc1	CDK9 with cyclin T1	–	–	–	relative to: IC50 CDK4/6 over IC50 CDK9	selectivity ratio	> 38 fold
COc1cc(N2CCN(C)CC2)ccc1Nc1nc(N)n(C(=S)NCc2c(Cl)cccc2Cl)n1	CDK9	enzyme activity	–	10 µM	relative to: control	remaining activity	8%
CC(C)(C)c1cnc(CSc2cnc(NC(=O)C3CCN(C(=O)CCCCCCCN4Cc5cc6c(cc5C4)C(=O)N(C4CCC(=O)NC4=O)C6=O)CC3)s2)o1 (centres unmarked)	CDK9	protein degradation, degrader, Western blot	TC-71	50 nM, 24 h	–	Dmax	> 99%
O=C(NC1CCC1)c1ccc2nc(-c3cccc(NS(=O)(=O)NCCN4CCCCC4)c3)cn2c1	CDK9	enzyme activity	–	10 µM	–	remaining activity	100%
CN(C)C(=O)c1cc2cnc(Nc3ccc(-c4ccc5c(=O)cc(N6CCOCC6)oc5c4)cc3)nc2n1C1CCCC1	CDK9	KINOMEscan binding	–	1.0 µM	relative to: control	remaining binding	3.9%
c1cnc2ccc(Nc3nc(NC4CC4)c4nc[nH]c4n3)cc2c1	CDK9	kinase activity, inhibitor, SelectScreen kinase profiling	–	1 µM	relative to: control	remaining activity	77%

Some of these lines once more:
SMILES	target	test	test system	conditions	how to read	endpoint	result
Cc1cc(Nc2cc(N3CCN(C)CC3)nc(Sc3ccc(NC(=O)C4CC4)cc3)n2)[nH]n1	CDK9 with cyclin T1	kinase activity, KinaseProfiler	–	0.03 µM, species human	relative to: control	remaining activity	103%
